Results pooled from the literature.
Lines come from different studies, so protocols differ. Values joined by “and” are separate records of one study, mostly repeats; a detail may differ.
Target: LIM domain kinase 1 (LIMK1, Homo sapiens, UniProt P53667)

test	setting	scale	endpoint	value	Structure (SMILES)
enzyme activity	1 µM	reference: DMSO control	remaining activity	91.7%	Nc1ncc(-c2cc(-c3cnn(CC(F)(F)F)c3)ncc2F)nc1C(=O)NC1CNCC(F)C1 (stereo not drawn)
enzyme activity, inhibitor	1 µM	–	inhibition	10%	CN1CC[C@@H](COc2cnc(C#N)cc2-c2ccn3nc(NC(=O)C4CC4)cc3c2)C1
enzyme activity, inhibitor, radiometric	1 µM	–	remaining activity	44%	COC(=O)[C@@]1(C)C=C(C(=O)Nc2cccc(C(=O)Nc3ccc(Nc4nccc(-c5cccnc5)n4)c(C)c3)c2)C(=O)CC1
inhibitor	1 µM	reference: control	remaining activity	75%	COc1cc(Nc2nc(C)cc(-c3cnn4nc(OC)ccc34)n2)cc(C(F)(F)F)c1
kinase activity, inhibitor, ProQinase kinase profiling	25 µM	reference: control	remaining activity	81% and 85%	COCC12C(=O)NC3C4(C(OC)CC1O)C1CC5(O)C(OC)C(O)C(OC(C)=O)(C1C5OC(=O)c1ccccc1)C3(O)C(OC)C24 (stereo not drawn)
cell-free assay, inhibitor	1 µM	–	inhibition	-1.1%	C=CC(=O)N1Cc2nc(-c3cc(-c4cc(Cl)cnc4Cl)c(F)cc3F)n(-c3ccncn3)c2C1
binding	0.1 µM	–	remaining binding	91%	Cc1cnc2nc1Nc1cccc(c1)COC/C=C/COCc1cc(ccc1OCCN1CCOCC1)N2
kinase activity	0.1 µM	–	inhibition	34% and 33%	C=CC(=O)Nc1cccc(-c2cnc3[nH]cc(C(=O)NC(C)(C)C)c3n2)c1
cell-free assay, competition with immobilised ligand	1 µM	–	remaining binding	97%	Cc1ccc(-c2c(/C=C(\C#N)C(=O)NC(C)C)n(CCCO)c3ncnc(N)c23)cc1
enzyme activity, inhibitor	10 µM	–	activity vs control	74%	O=C(Cc1ccc(OCc2ccccc2)cc1)NC1(C(=O)O)CCN(C(=O)c2ccc(-c3cccc(Cl)c3)cc2)CC1
enzyme activity, inhibitor	10 µM	–	inhibition	25%	NC(=O)[C@@H](O)C[C@H]1CCc2sc3ncnc(O[C@H]4CC[C@H](N5CCOCC5)CC4)c3c21
KinomeScan	0.1 µM	reference: untreated	remaining binding	100%	CNC1C[S+]2CC[S+]3CC[S+](C1)[Ru-4]321([N]=C=S)[n]2c3ccc(OC)cc3c3c4c(c5cc(F)c[n+]1c5c32)C(=O)NC4=O (stereo not drawn)
cell-free assay, competition with immobilised ligand	1 µM	–	remaining binding	100%	C=CC(=O)N1CCCC(n2c(=O)c3ncccc3n(Cc3ccc(Oc4ccccc4)cc3)c2=O)C1 (stereo not drawn)
binding, competition with immobilised ligand	1 µM	–	remaining binding	100%	Nc1ncc2c(n1)-c1c([nH]c3ccc(C4=CCOCC4)cc13)CCC2
kinase activity, inhibitor	1 µM	reference: untreated control	remaining activity	102%	COc1c(OCCCN2CCOCC2)ccc2c1N=C(NC(=O)c1cnc(N)nc1)N1CCN=C21
